Published values collected from several papers.
A part holds a random share of what one study measured. Substitutions count along the parent as printed.

Set 1
Target: CCNB3, cyclin fold, Cln2 fusion (human)
Technique: yeast growth competition, sequencing
Medium: yeast
Setting: weak parent motif
Reference: not given
Direction: higher = stronger binding
Endpoint: normalised enrichment score
Parent: viral docking peptide; PTARRRLLHDLDT; partner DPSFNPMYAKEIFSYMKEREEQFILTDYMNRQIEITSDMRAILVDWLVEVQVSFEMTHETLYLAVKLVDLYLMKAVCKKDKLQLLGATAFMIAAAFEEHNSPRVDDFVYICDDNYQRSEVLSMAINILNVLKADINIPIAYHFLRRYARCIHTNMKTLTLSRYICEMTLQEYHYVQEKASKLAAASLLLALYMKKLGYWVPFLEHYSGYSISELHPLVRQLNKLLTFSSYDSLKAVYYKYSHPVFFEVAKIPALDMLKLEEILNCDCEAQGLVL
Variant = R5A; value = 0.112
Variant = D10A; value = -0.00302
Variant = P1A; value = 0.423
Variant = R4A; value = -0.441
Variant = R5K H9F; value = 1.49
Variant = L7A; value = -0.296
Variant = H9F; value = 2.31
Variant = R5K L8F; value = 0.624
Variant = R5A R6A L7A L8A; value = 0.0448
Variant = T2A; value = -0.391

Set 2
Target: HLA class I histocompatibility antigen, A alpha chain, allele A*80:01 (Homo sapiens, UniProt P04439)
Observed: peptide-MHC binding
Molecule type: peptide
Tested at: concentration not given
Endpoint: binding
Molecule = GTTVVKVKY; value = inactive
Molecule = KVSVGSYFC; value = inactive
Molecule = RTDNGGWAH; value = inactive
Molecule = EVNAHIHTM; value = inactive
Molecule = WLYDLWGQL; value = inactive
Molecule = HTEFQTVSF; value = inactive
Molecule = YWDQVTFFY; value = inactive
Molecule = AQKLATKPV; value = inactive
Molecule = GTEELKSLY; value = inactive

Set 3
Target: Prothrombin, mature alpha-thrombin (F2, Homo sapiens, UniProt P00734)
Technique: aptamer microarray, sandwich
Molecule type: DNA with 2'F-ANA
Medium: in vitro
Tested at: 200 nM
Setting: whole 15-mer aptamer, many near background
Added: Cy3 exosite-II aptamer, 400 nM
Direction: higher = stronger binding
Endpoint: mean fluorescence intensity
Strand: GGTTGGTGTGGTTGG
Modification = 2'F-ANA at 2 4 9 14 15; value = 88.1 a.u.
Modification = 2'F-ANA at 1 3 4 5 6 10; value = 47.1 a.u.
Modification = 2'F-ANA at 1 2 3 9 12 13 15; value = 351 a.u.
Modification = 2'F-ANA at 1 5 7 9 14 15; value = 168 a.u.
Modification = 2'F-ANA at 1 3 8 9; value = 346 a.u.
Modification = 2'F-ANA at 1 3 7 9 10 12 13 14 15; value = 67.3 a.u.
Modification = 2'F-ANA at 1 4 6 8 9 12; value = 309 a.u.
Modification = 2'F-ANA at 3 4 5 6 8 9 13 14; value = 101 a.u.

Set 4
Target: UBE2D2 UBC core domain (UniProt P62837)
UniProt P62837, sequence (whole entry, looked up): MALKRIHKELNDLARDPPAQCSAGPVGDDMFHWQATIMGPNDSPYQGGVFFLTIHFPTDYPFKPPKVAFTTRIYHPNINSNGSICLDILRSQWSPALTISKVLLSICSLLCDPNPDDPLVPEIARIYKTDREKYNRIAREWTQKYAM
Technique: yeast two-hybrid
Medium: yeast
Setting: mostly zero background
Reference: not given
Direction: higher = stronger interaction
Endpoint: lacZ reporter activity
B1: RNF14 RING domain (UniProt Q9UBS8); chain IKCFNSKLFLCSICFCEKLGSECMYFLECRHVYCKACLKDYFEIQIRDGQVQCLNCPEPKCPSVATPGQVK
B2: RNF112 RING domain (UniProt Q9ULX5); chain QPMAPRELPTCSICLERLRDPISLDCGHDFCIRCFSTHRLPGCEPPCCPECRKICKQKRGLR
B3: RNF150 RING domain (UniProt Q9ULK6); chain DKETESDFDNCAVCIEGYKPNDVVRILPCRHLFHKSCVDPWLLDHRTCPMCKMNILKALGIP
B4: ANKIB1 RING domain (UniProt Q9P2G1); chain LSPGDLDTSLCDICMCSISVFEDPVDMPCGHDFCRGCWESFLNLKIQEGEAHNIFCPAYDCFQLVPVDIIE
B5: RNF175 RING domain (UniProt Q8N4F7); chain LPTRSLSDNICAVCGQKIIVELDEEGLIENTYQLSCNHVFHEFCIRGWCIVGKKQTCPYCKEKVDLKRMIS
B6: PEX2 RING domain (UniProt P28328); chain DNTLATSGKECALCGEWPTMPHTIGCEHIFCYFCAKSSFLFDVYFTCPKCGTEVHSLQPLK
B7: MSL2 RING domain (UniProt Q9HCI7); chain LLPYFRQSLSCCVCGHLLQDPIAPTNSTCQHYVCKTCKGKKMMMKPSCSWCKDYEQFEENKQ
Molecule = B1 (RNF14 RING domain); value = 0
Molecule = B2 (RNF112 RING domain); value = 0
Molecule = B3 (RNF150 RING domain); value = 16100
Molecule = QLQDEEDDSLCRICMDAVIDCVLLECGHMVTCTKCGKRMSECPICRQYVVRAVHVF (RNF34 RING domain (UniProt Q969K3)); value = 0
Molecule = B4 (ANKIB1 RING domain); value = 0
Molecule = KRQCSDVDDICSICQAEFQKPILLICQHIFCEECMTLWFNREKTCPLCRTVISDHINKW (RNFT1 RING domain (UniProt Q5M7Z0)); value = 0
Molecule = B5 (RNF175 RING domain); value = 0
Molecule = B6 (PEX2 RING domain); value = 0
Molecule = B7 (MSL2 RING domain); value = 0
